Measurements collected from several papers.
Every numbered part comes from another study and shows a few of its results, in no order. Positions count from the first letter of the parent shown.

Block 1
Target: CCNB1, cyclin fold, Cln2 fusion (human)
Technique: yeast growth competition, sequencing
Sample: yeast
Notes: weak parent motif
Baseline: not given
Reading: higher = stronger binding
Starting sequence: ITGB3BP docking peptide (human); MPVKRSLKLDGLL
Under “normalised enrichment score”, `MAVKRSLKLDGLL [P2A]` is recorded as 0.683.
`MPVARSLKLDGLL [K4A]`: “normalised enrichment score” 0.461.
For `MPVKRSLKFDGLL [L9F]`, “normalised enrichment score” read 0.34.
Under “normalised enrichment score”, `MPVKKSLKFDGLL [R5K L9F]` is recorded as 0.119.
For `MPVKRSLKLAGLL [D10A]`, “normalised enrichment score” read 0.321.
For `MPVKRSAKLDGLL [L7A]`, “normalised enrichment score” read 0.958.
`MPVKASLKLDGLL [R5A]` — result for “normalised enrichment score”: -0.137.
`MPVKRSLKLDALL [G11A]` — result for “normalised enrichment score”: 0.509.
For `MPVKASAKLDGLL [R5A L7A]`, “normalised enrichment score” read 0.152.
`MPAKRSLKLDGLL [V3A]`: “normalised enrichment score” 1.24.

Block 2
Target: RNA binding protein fox-1 homolog 2, RRM domain, GST-SBP tag (RBFOX2, Homo sapiens, UniProt O43251-10, residues 100-194)
Technique: RNA Bind-n-Seq
Molecule type: RNA
Sample: in vitro
Concentration: 365 nM
Notes: natural RNA segment, single round, ends assumed
Baseline: no-protein control
Reading: higher = stronger binding
Construct (chain): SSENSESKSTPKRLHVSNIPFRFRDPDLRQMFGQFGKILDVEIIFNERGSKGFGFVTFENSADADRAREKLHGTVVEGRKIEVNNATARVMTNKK
`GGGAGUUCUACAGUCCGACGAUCACCUGCAGCAGCAUGUCUGGCAAACUGAGUCGCCCUCCUGCCUCCAGCUCUCUGUUGAGCAGAGGGAAGGCAUGGGGGCAGGAAGAGAGCUGAGCAUUGAUGGGGAUGGGUGGAAUUCUCGGGUGCCAA`: “RBNS enrichment (R)” 2.19.
For `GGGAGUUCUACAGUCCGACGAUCUUUUCCUUCCUUCACUGUUGUAGUAAAGAGACAUAUUUCAUGAAUGGCAUUGAUGCUAAUAAAUCCUUUGCACAAAAAUUUGAAUAAACUUCCAGUGGUUUCGAUAACGUUGGAAUUCUCGGGUGCCAA`, “RBNS enrichment (R)” read 0.557.
For `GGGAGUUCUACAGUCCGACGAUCCACAGGACCUGUCCCUGUGAGCGCCUCGGUGGUGCCAAGCCUGCAGGGAGUGGGAGCCGGGUGGACAUCUGAGGCUGGGGCCAGUGUACCAGGGCAGCCCCUGAGUCCACUGGAAUUCUCGGGUGCCAA`, “RBNS enrichment (R)” read 0.333.
`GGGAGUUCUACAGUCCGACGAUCUUAACCGGAACAUCGUCUAGCUGGUGUUAGGAAUGUUUGCUUAAUUUCCAGACUUUUUUUUAAAAACACAUCGUGGGUUUUUUGAGGCUCCAACCUGAUUAGUGCAUGGUUGGAAUUCUCGGGUGCCAA` — result for “RBNS enrichment (R)”: 2.19.
Under “RBNS enrichment (R)”, `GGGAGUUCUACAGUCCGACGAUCAAAAAUCAGCGAGCCUUCGCAUUUGAUGCCAAGUUUUUGUUACAGAUUAAUUUUUCCAUAAAACCAUUUUGAACCAAUGAACCAGUCAAUAAUUUUAAGGUUCUGUUUUAUGGAAUUCUCGGGUGCCAA` is recorded as 1.06.
For `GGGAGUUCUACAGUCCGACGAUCUUUUGGAAAUGGGUGACCUGAAGUGACACUUUUUCCACAAUUAACCCAAGUUGUGUUAAUACUUCAGGUCUGUUUCCCAGACCCAGAAAGCUUUACAGAAAAUCAUUGUAUGGAAUUCUCGGGUGCCAA`, “RBNS enrichment (R)” read 0.338.
`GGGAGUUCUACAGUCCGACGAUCUCCUUUAGCCUUAGCAGUGGGUAUGAGGUGUGCAGGGGGAGCUGGGUGGCUUCACUCCGCCCAUUCCAAAGAGGGCUCUCCCUCCACACUGCAGCCGGGAGCCUCUGCUGUGGAAUUCUCGGGUGCCAA`: “RBNS enrichment (R)” 0.334.
Under “RBNS enrichment (R)”, `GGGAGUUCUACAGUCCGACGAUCCGACUUUUGUUUGUGUUACAUGACUUCUGUGACUUCAUUGAAAAUCUGCACAAUUCAGUUUCAGCUCUGGAUUACUUCAGUUGACCUUUGUGAAGGUUUUUAUCUGUGUAUGGAAUUCUCGGGUGCCAA` is recorded as 0.379.

Block 3
Target: Histone acetyltransferase KAT6A, winged helix 2, GST fusion (KAT6A, Homo sapiens, UniProt Q92794, residues 85-181)
Technique: protein binding microarray
Molecule type: double-stranded DNA, one strand shown
Sample: in vitro
Concentration: not given
Notes: 8-mer, flanks averaged, mean of 2 arrays, mostly near background
Baseline: not given
Reading: higher = stronger binding
Residues (chain): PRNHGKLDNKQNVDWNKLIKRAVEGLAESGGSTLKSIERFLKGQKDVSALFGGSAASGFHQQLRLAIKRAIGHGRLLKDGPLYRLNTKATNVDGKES
`GTATCACA` has an E-score of -0.0231.
`AGTGATAC` gave an E-score of -0.0126.
`CCGTAACC` gave an E-score of -0.0396.
`CAAATTGG` has an E-score of -0.0836.
The E-score of `CTCTCCAG` is reported as 0.0913.
`ACGGGAGG` gave an E-score of 0.0604.
`AGATGGCT` gave an E-score of -0.0303.
With `AAGCTCGT` the E-score was -0.0476.
`AACAGAAA` gave an E-score of -0.027.
For `ACCACGGT`, the E-score was -0.205.
`CCGCCGAA` has an E-score of 0.246.
With `CAACATAG` the E-score was -0.0523.
For `ACTCAATA`, the E-score was 0.0405.
For `ATTGTACA`, the E-score was -0.158.
For `GGTATTGA`, the E-score was -0.0821.
`AGGAGAGA` has an E-score of -0.137.
`CCGAGATA` has an E-score of 0.188.
`CAGGACTC` has an E-score of -0.102.
`ATACCGAG` has an E-score of -0.0942.
For `TAACGTCA`, the E-score was -0.104.
The E-score of `CCAGGTAG` is reported as -0.0857.
`AGCTAATA` has an E-score of -0.021.

Block 4
Target: RING finger protein unkempt homolog, zinc fingers 1-6, GST-SBP tag (UNK, Homo sapiens, UniProt Q9C0B0, residues 30-357)
UniProt Q9C0B0, sequence (30-357, looked up): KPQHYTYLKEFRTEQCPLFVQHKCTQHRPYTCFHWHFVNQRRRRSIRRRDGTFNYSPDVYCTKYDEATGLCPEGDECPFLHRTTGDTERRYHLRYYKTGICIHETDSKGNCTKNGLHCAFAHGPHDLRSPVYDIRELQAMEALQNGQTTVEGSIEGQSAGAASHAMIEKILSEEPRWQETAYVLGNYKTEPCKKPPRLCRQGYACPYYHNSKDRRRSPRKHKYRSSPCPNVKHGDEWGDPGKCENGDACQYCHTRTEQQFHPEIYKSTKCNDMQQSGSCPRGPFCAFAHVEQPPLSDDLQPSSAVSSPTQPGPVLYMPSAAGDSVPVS
Technique: RNA Bind-n-Seq
Molecule type: RNA
Sample: in vitro
Concentration: not given
Notes: RNA with constant flanks, ends assumed
Baseline: input RNA pool
Reading: higher = stronger binding
For `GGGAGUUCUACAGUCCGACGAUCGCAAUCAGCAGAGACAUUGAUACUGCUGCCAAAUUUAUUGGUGCAGGUGCUGCAACAGCCGGAGUGGCUGGUUCUGGUGCUGGUAUUGGAACAGUCUUUGGCAGCCUUAUCAUUGGUUAUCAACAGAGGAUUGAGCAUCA`, the bound/input enrichment was 0.153 ratio.
`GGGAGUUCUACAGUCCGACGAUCGAUACAAAAAGGCUUUCCCGAGAAGAGAAGGGUCGCAGCAGCUGUGGUAGGAAUUUCUGGGUCCGUGGCCUUUCGUCUACAACCAGAGCCACGGAUCUGAAGAACCUGUUUAGCAGAUAUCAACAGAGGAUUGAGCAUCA` gave a bound/input enrichment of 0.375 ratio.
`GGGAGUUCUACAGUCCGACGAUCGCACAAAUCUUUCCCACUAGCCAUUUAAUAAGUUAAAAAAAGAUACAAAAACAAAAACCUACCCGUCUUGAACAAACUGUCAUACGUAUGGGACCUACACUUAAUCUAUAUGCUUUACACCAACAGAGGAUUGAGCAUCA` has a bound/input enrichment of 38.8 ratio.
With `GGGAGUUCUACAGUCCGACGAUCAUGCUCCUAGAAGCUGAAAAUGACAAAGAAGUUGAAAUUCUUAAAGAUAUCCGGGCACAUUUCCGUGCAAUGGUGGCCAACUUGAUUCAGUGUGUUCCAGUUCACCACCGAAGAUUUCUCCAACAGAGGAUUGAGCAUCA` the bound/input enrichment was 0.193 ratio.
`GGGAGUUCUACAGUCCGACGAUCGAGAAGAAGCAGCAACUUCUUAGAGCGGCAACAGGAAAGGCCAUUUUAAAUGGAACCGACCGCAUUAACAAAGUGCUAGAACAUUUUCGGCGAAAAGGUAUAAACCAGCAUGUUCAAAAUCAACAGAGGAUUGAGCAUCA` has a bound/input enrichment of 0.173 ratio.
`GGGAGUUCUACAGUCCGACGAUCGAUAUUUGUAAAUAAAGGUAGAAAUAUUAGAUCCAUUUCUGCAGAACUUACUGUACAGUUCCGUUGGAGUGUAGCACUGAAGAACUGUCAGCUCAGCGUUGACUGAGGAGAUAGUGAAAACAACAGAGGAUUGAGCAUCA` gave a bound/input enrichment of 0.783 ratio.
For `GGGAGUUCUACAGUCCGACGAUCUUUCGACAGUUUAUAUUGGUCAUGAAUGCAUUAGAUAACAGAGCUGCACGAAACCACGUGAACCGGAUGUGUCUGGCCGCUGAUGUGCCUCUCAUUGAGAGCGGGACUGCUGGGUAUCUCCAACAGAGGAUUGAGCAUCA`, the bound/input enrichment was 0.251 ratio.
With `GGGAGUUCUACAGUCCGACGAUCAGUUUCAGUAUCUCUGGCUGGAGUAUUGACUCACAAAAAGAACCAUCCAGAGAGCACAGUCCGCAUUAUGUCCCUGUGUGUGAGUGCUGUUACUUACGCCGUUUUGUAUCGUACAGUACACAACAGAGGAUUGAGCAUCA` the bound/input enrichment was 0.154 ratio.

A few entries again (block 3):
`CAGGACTC` has an E-score of -0.102.
`AGGAGAGA` has an E-score of -0.137.
With `CAACATAG` the E-score was -0.0523.
With `AAGCTCGT` the E-score was -0.0476.
`AACAGAAA` gave an E-score of -0.027.
The E-score of `CTCTCCAG` is reported as 0.0913.
For `GGTATTGA`, the E-score was -0.0821.
`AGATGGCT` gave an E-score of -0.0303.
